Earlier results as cited in several papers.
Compare with care: the assays were run in different laboratories. Numbers after ± are the reported error.
UniProt P21554, sequence (whole entry, looked up): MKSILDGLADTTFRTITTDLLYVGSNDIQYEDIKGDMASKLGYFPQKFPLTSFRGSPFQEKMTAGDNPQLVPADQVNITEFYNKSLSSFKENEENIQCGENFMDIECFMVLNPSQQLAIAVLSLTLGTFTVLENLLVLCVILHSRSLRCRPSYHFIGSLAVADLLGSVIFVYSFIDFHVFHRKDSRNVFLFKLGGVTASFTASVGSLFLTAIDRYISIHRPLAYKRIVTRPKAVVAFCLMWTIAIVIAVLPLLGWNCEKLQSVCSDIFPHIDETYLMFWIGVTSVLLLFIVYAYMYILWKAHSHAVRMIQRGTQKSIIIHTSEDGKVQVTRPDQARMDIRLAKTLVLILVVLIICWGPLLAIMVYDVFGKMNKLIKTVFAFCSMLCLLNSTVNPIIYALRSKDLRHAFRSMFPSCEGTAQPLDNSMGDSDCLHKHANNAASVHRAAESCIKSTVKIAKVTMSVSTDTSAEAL
UniProt P41143, sequence (whole entry, looked up): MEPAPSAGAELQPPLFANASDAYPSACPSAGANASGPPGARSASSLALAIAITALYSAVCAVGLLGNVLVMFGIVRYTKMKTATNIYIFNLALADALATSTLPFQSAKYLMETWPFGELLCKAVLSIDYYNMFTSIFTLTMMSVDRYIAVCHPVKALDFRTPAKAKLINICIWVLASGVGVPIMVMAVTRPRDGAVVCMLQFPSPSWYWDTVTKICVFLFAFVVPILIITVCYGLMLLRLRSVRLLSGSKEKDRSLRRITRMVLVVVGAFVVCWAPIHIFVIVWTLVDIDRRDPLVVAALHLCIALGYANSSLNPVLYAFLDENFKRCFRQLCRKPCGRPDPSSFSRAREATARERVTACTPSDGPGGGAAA
UniProt P35368, sequence (whole entry, looked up): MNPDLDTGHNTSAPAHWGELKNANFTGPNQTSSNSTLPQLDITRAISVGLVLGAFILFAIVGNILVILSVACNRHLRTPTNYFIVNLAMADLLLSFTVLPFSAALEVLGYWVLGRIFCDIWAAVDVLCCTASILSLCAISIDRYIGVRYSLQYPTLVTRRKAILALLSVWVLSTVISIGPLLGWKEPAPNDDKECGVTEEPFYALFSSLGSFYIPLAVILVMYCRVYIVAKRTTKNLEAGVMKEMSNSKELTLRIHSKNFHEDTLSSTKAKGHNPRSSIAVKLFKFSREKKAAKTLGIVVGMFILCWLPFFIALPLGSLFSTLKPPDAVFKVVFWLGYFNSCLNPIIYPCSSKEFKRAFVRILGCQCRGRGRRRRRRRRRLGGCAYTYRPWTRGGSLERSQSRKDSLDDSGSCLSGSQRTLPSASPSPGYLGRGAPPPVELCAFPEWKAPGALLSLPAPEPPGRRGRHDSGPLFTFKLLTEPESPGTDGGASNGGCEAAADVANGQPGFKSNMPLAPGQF

CN(CCCC(=O)O)N=O — result for mutagenicity: “negative” (Salmonella typhimurium; Ames test; concentration not given).
N[C@@H](Cc1ccc(N(CCCl)CCCl)cc1)C(=O)O has a CC50 of over 200000 nM (HGF gingival fibroblasts).
The Km of O=C1OC(c2ccc(O)c(S(=O)(=O)O)c2)(c2ccc(O)c(S(=O)(=O)O)c2)c2c(Br)c(Br)c(Br)c(Br)c21 is reported as 0.0054 mM (OATP2B1, human; uptake, substrate; HEK293 OATP2B1 transfected).
O=[P@]1(S)OC[C@H]2O[C@@H](n3cnc4cc(Cl)c(Cl)cc43)[C@H](O)[C@@H]2O1: “Km or Ki” 2250 nM (PDE1B; cyclic nucleotide hydrolysis, substrate or inhibitor, isothermal titration calorimetry).
For C1CO1, the Km was 10 mM (glutathione S-transferase; glutathione conjugation, substrate; rat, liver cytosol).
For Cn1nnc(-c2ccc(-c3ccc(N4C[C@H](CO)OC4=O)cc3F)cn2)n1, the unbound fraction was 8.8 ± 1.8% (caseum; 5 µM, 4 h, 37 °C).
With C=CCN(CC=C)CCc1c[nH]c2ccc(F)cc12 the Ki was over 10000 nM (OPRD1 (Homo sapiens, UniProt P41143)).
Cc1ncc2n1-c1ccc(Cl)cc1C(c1ccccc1F)=NC2 has a metabolic ratio of 1.01 (CYP3A hepatic; item: parent to 1-hydroxy metabolite ratio; human; intravenous, 0.025 mg/kg, with: simeprevir 150 mg; reference: with over without simeprevir).
CC(=O)NNC(=O)c1ccncc1 gave an unbound fraction of over 99.9% (caseum; 5 µM, 4 h, 37 °C).
For COc1ccc2c(c1)[C@]13CCCC[C@@H]1[C@H](C2)N(C)CC3, the AUClast ratio was 1.08 (CYP2D6; substrate; healthy subjects, fed; oral, 30 mg, with: simeprevir 150 mg; reference: with over without simeprevir).
Cc1cc(N)c2c(OCC(C)(C)C(=O)NC(C)C)cccc2n1: Ames test “negative” (Salmonella enterica Typhimurium; TA98 and TA100; concentration not given, with and without S9).
For Cc1ccc(OC(C)(C)C(=O)N[C@@H](C)[C@@H](Cc2ccc(OCCF)cc2)c2cccc(C#N)c2)nc1 [fluorine-18 labelled], the VT was 25.1 ± 13.3 mL/cm³ (CNR1 (Homo sapiens, UniProt P21554); PET; human, putamen).
COc1ccc(CN(C(=O)[C@@H](N)Cc2c(C)cc(C(N)=O)cc2C)[C@@H](C)c2nc(-c3ccccc3)c[nH]2)cc1C(=O)O gave a total clearance of 11.1 mL/min (rat; intravenous, 10 mg/kg, body weight 0.25 kg).
With COc1nc2ccc(Br)cc2cc1[C@@H](c1ccccc1)[C@@](O)(CCN(C)C)c1cccc2ccccc12 the unbound fraction was under 0.01% (caseum; 5 µM, 4 h, 37 °C).
COc1cccc(C2(O)CCCCC2CN(C)C)c1 (stereo not drawn) has a drug liking-disliking of 15 (human drug abusers; oral, 200 mg, peak, 100-point scale, unit not given; reference: placebo).
COC1C2OP(O)(=S)OCC2OC1n1c(Sc2ccc(Cl)cc2)nc2c(N)ncnc21 (stereo not drawn): “Km or Ki” 820 nM (PDE4D; cyclic nucleotide hydrolysis, substrate or inhibitor, isothermal titration calorimetry).
For CC1=C(/C=C/C(C)=C/C=C/C(C)=C/C(=O)Nc2ccc(O)cc2)C(C)(C)CCC1, the plasma concentration was at most 3000 nM (human, chemoprevention; 100 to 400 mg daily).
C=CCN(CC=C)CCc1c[nH]c2ccccc12 has a Ki of 1370 nM (ADRA1B (Homo sapiens, UniProt P35368); binding; cloned human receptor; with: [3H]prazocin).

A few entries again:
For COc1ccc2c(c1)[C@]13CCCC[C@@H]1[C@H](C2)N(C)CC3, the AUClast ratio was 1.08 (CYP2D6; substrate; healthy subjects, fed; oral, 30 mg, with: simeprevir 150 mg; reference: with over without simeprevir).
Cc1cc(N)c2c(OCC(C)(C)C(=O)NC(C)C)cccc2n1: Ames test “negative” (Salmonella enterica Typhimurium; TA98 and TA100; concentration not given, with and without S9).
